Measured values of several laboratories.
Every numbered part comes from another study and shows a few of its results, in no order.

Study 1
Target: RNA binding protein fox-1 homolog 2, RRM domain, GST-SBP tag (RBFOX2, Homo sapiens, UniProt O43251-10, residues 100-194)
Technique: RNA Bind-n-Seq
Form: RNA
Matrix: in vitro
Tested at: 365 nM
Setting: natural RNA segment, single round, ends assumed
Relative to: no-protein control
Reading: higher = stronger binding
Construct (chain): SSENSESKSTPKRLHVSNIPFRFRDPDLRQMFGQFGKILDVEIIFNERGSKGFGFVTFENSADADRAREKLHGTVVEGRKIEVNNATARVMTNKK
Strand | RBNS enrichment (R)
GGGAGUUCUACAGUCCGACGAUCCUGUGGGUCUCUGGAUCCUGACCAGUUUGGACUCUGAGUUUUGGGGACCAGGACACUGCGAGGACAGGGACCUGACUCAAAAGACACAGCUAUGCUUCCAAUUUUGCACAUGGAAUUCUCGGGUGCCAA | 0.662
GGGAGUUCUACAGUCCGACGAUCUUAUCUGGAGCCCACAUAGUGUGGAACAAAAAGUCACCUAGAAAGCAUCCUUGGUCAUCAUUGUCUCCUUCCCACCUGGCCCAGAGAUGCUUAAAUCCAAGUUGUUUCUCUGGAAUUCUCGGGUGCCAA | 0.255
GGGAGUUCUACAGUCCGACGAUCUGCCUCCACCUCCUCAAUGCCGUACCACUAUACCAGUUUGAGUGGUGCUGGGUAUGGAACCCAGGGCUUUGUGCAUGCUAGGCGAGCACUUACCAACUGAGCUACAUCCCUGGAAUUCUCGGGUGCCAA | 3.57
GGGAGUUCUACAGUCCGACGAUCACUACAUUAGUUUCCCUUUCUGAUUCUUAAUCUGUAGUUCUUUGUUAUAUUUCACAAAAAAAAAAAAUGUCUCGGUCACUACGCAAAGCUGCUAGUGGGGUUCUGUAUUUUGGAAUUCUCGGGUGCCAA | 0.647

Study 2
Target: Prothrombin, mature alpha-thrombin (F2, Homo sapiens, UniProt P00734)
Technique: aptamer microarray, sandwich
Form: DNA with 2'F-ANA
Matrix: in vitro
Tested at: 200 nM
Setting: whole 15-mer aptamer, many near background
With: Cy3 exosite-II aptamer, 400 nM
Reading: higher = stronger binding
Strand | mean fluorescence intensity [a.u.]
GGTTGGTGTGGTTGG (2'F-ANA at 2 4 5 6 8 10 14 15) | 50.1
GGTTGGTGTGGTTGG (2'F-ANA at 1 2 3 4 6 10 12 13 14 15) | 53.5
GGTTGGTGTGGTTGG (2'F-ANA at 4 5 7 8 12) | 194

Study 3
Target: Histone acetyltransferase KAT6A, winged helix 1, GST fusion (KAT6A, Homo sapiens, UniProt Q92794, residues 1-85)
Technique: protein binding microarray
Form: double-stranded DNA, one strand shown
Matrix: in vitro
Tested at: not given
Setting: 8-mer, flanks averaged, mean of 2 arrays, mostly near background
Relative to: not given
Reading: higher = stronger binding
Construct (chain): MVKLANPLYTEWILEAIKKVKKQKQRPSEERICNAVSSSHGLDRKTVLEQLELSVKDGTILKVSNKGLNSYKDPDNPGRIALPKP
Strand | E-score
CACGCGTA | 0.285
GCAACGCA | 0.0914
CAGCAGCA | -0.154
ACTAGGAT | -0.204
ACTAGGAA | -0.123

Mixed results
Substance | target | test | system | setting | how to read | endpoint | value
PhoQ, residues 284 288 289 292 302 303 ASTSDA | PhoP, residues 12 14 15 18 19 SPWRL (Escherichia coli, UniProt P23836) | Sort-seq, refers to: YFP reporter | E. coli | PhoQ-PhoP variant library, with: 10 µM Mg2+ | relative to: high Mg2+ state, higher = stronger signaling | fold induction | 1.2

Some of these lines once more (study 1):
Strand | RBNS enrichment (R)
GGGAGUUCUACAGUCCGACGAUCACUACAUUAGUUUCCCUUUCUGAUUCUUAAUCUGUAGUUCUUUGUUAUAUUUCACAAAAAAAAAAAAUGUCUCGGUCACUACGCAAAGCUGCUAGUGGGGUUCUGUAUUUUGGAAUUCUCGGGUGCCAA | 0.647
